Published values collected from several papers.
Protocols differ between the studies behind these lines. ± gives the spread as reported.

C=C(c1ncc(C(=O)O)cn1)c1cc2c(cc1C)C(C)(C)CCC2(C)C  LDL level (Sprague-Dawley rat, male, plasma; oral, 100 mg/kg, 2 h, sesame oil vehicle): 19 ± 11.1 mg/dL
Cc1ccccc1/N=N/c1ccc(/N=N/c2c(O)ccc3ccccc23)c(C)c1  measured concentration (rat whole blood extract; 0.5 µg/L, 30 days, -20 °C, long-term storage): 0.503 µg/L
CC(C)c1cnc(-c2cc(Cl)ccc2F)cc1Nc1ccncc1C(=O)NC(CO)CO  grade 3 ALT increase incidence (human, advanced solid tumour; oral, dose not given, phase I monotherapy): 9.5%
CC(C)C[C@@H](NC(=O)[C@H](NC(=O)[C@H]1CCCN1)[C@H](C)O)C(=O)N[C@H](Cc1c[nH]cn1)C(=O)N[C@@H](C(=O)N[C@H](Cc1c[nH]cn1)C(=O)N[C@H](CC(N)=O)C(=O)N[C@H](CCCNC(=N)N)C(=O)N[C@H](CCCNC(=N)N)C(=O)N[C@H](CCCNC(=N)N)C(=O)N[C@H](CCCNC(=N)N)C(=O)N[C@H](CCCNC(=N)N)C(N)=O)[C@H](C)O  AUC(0-inf) (Beagle dog, CSF; oral, 20 mg/kg): 242 ± 47 ng·h/mL
CCCCCCCC(=O)C(=O)C(O)CO (centres unmarked)  surface pressure increase (pressure-area isotherm; Escherichia coli lipid monolayer; 68 Å^2 per lipid, in subphase): ~26%
CC(=O)Nc1ncc(CN2CC[C@H](Oc3cccc([18F])n3)C[C@@H]2C)s1  radiochemical stability (HPLC; formulation; 2 h, room temperature): > 97%
Cc1noc(C)c1Cn1cc(N2C(=O)CN(Cc3cccc(O[C@@H]4O[C@H](C(=O)O)[C@@H](O)[C@H](O)[C@H]4O)c3)C2=O)cn1  AUC(0-last) (rat Sprague-Dawley male, plasma; oral, 10 mg/kg of parent drug): 6050 ng·h/mL
COc1cc(OC)cc(C2=C3C(C)=C(I)C(/C=C/c4c[nH]c5ccccc45)=[N+]3[B-](F)(F)n3c(/C=C/c4c[nH]c5ccccc45)c(I)c(C)c32)c1  absorption maximum (dichloromethane): 702 nm
C#CCOc1ccc(/C=C2\SC(=O)N(CC(=O)NCc3ccccc3)C2=O)cc1  correlation volume (inverse Kirkwood-Buff integrals; binary solvent mixture; concentration not given, 298.15 K, mole fraction x1 0.85): 5590 cm³/mol
O=C(NC1CC1)N1CCC=C(c2cc3c(Nc4cc5ncsc5cc4F)ncnc3s2)C1  intrinsic clearance (human liver microsomes; 1 µM): < 12 mL/min/g protein
CSCOC1C(=O)C2(C)C(OCSC)CC3OCC3(OC(C)=O)C2C(OC(=O)c2ccccc2)C2(O)CC(OC(=O)C(O)C(C=C(C)C)NC(=O)OC(C)(C)C)C(C)=C1C2(C)C (centres unmarked)  clearance (male Sprague-Dawley rat, plasma; intravenous, 1 mg/kg): 65 mL/min/kg
CCCC[C@H](NC(=O)CNC(=O)CNC(=O)CN1CCN(CC(=O)O)CCN(CC(=O)O)CC1)C(=O)N[C@H]1CC(=O)NCCCC[C@@H](C(N)=O)NC(=O)[C@H](Cc2c[nH]c3ccccc23)NC(=O)[C@H](CCCNC(=N)N)NC(=O)[C@@H](Cc2ccccc2)NC(=O)[C@H](Cc2c[nH]cn2)NC1=O [copper-64 labelled]  tissue uptake (female C57 mouse, B16/F1 melanoma, liver; intravenous, 0.037 MBq, 4 h): 0.75 ± 0.17 %ID/g
CC(=O)Nc1ccc(C(N)=O)c(F)c1  AUC (HPLC-MS/MS; human, male, plasma; 25 mg, geometric mean, 1): 700 ng·h/mL
CC(NCCc1nsc2ccccc12)c1cccc2c1OCO2 (centres unmarked)  serum calcium (mouse; subcutaneous, 3 mg/kg, 6 h): 2.4 mM
NCC(=O)N1CCC[C@H]1C(=O)N1C[C@H](O)C[C@H]1C(=O)O  log β (40 °C, MAH complex, ionic strength 0.15, with: Fe(III)): 21.5
COc1ccc(/C=C/c2ccc(-c3ccc(C)cn3)nc2)cc1  fluorescence lifetime (TCSPC; dioxane): 0.84 ns
COc1cc(NC(C)=O)c2c(c1O)-c1c(OC)c(OC)cc3c1C(C2)N(C)CC3 (centres unmarked)  remaining compound (rat lung homogenate; 5 µg/mL, 24 h, room temperature, post-preparative storage): 86.6 ± 1.3%
CC[C@H](C)[C@H](NC(=O)[C@H](CCCCN)NC(=O)[C@@H](NC(=O)[C@H](CS)NC(=O)[C@H](CCCNC(=N)N)NC(=O)[C@H](CCCNC(=N)N)NC(=O)[C@H](CC(N)=O)NC(=O)[C@H](CCCNC(=N)N)NC(=O)[C@H](CCCNC(=N)N)NC(=O)[C@H](CS)NC(=O)[C@@H](NC(=O)[C@H](CO)NC(=O)[C@@H](NC(=O)[C@@H](NC(=O)[C@H](CS)NC(=O)[C@H](CCCCN)NC(=O)[C@@H](N)CCCNC(=N)N)C(C)C)[C@@H](C)CC)C(C)C)[C@@H](C)CC)C(=O)N[C@@H](CC(C)C)C(=O)N[C@@H](CS)C(=O)N[C@@H](CC(N)=O)C(=O)O  single disulfide form (LC-MS; PBS; 0.1 mg/mL): 59%
CCCCN1C(=O)c2cccc3c(NCCCCCCCCCCN4CCOCC4)ccc(c23)C1=O  fluorescence quantum yield (water; pH 6; reference: fluorescein/0.1 N NaOH): 0.08
C[N+](C)(C)CCO.O=C(O)[C@H](O)Cc1ccccc1.O=C([O-])[C@H](O)Cc1ccccc1  pH (water; concentration not given): 3.86 ± 1.9
Cc1ccc(OCC(=O)O)cc1  Cmax (male Sprague-Dawley rat, plasma; oral, 30 mg/kg of parent drug, day 1, 90-day study, metabolite): 4400 ± 921 ng/mL
CCn1cc(/C=C/c2sc3ccccc3[n+]2CC)c2ccccc21  molar absorptivity (MeOH): 57700 M⁻¹ cm⁻¹
Cn1cc(C(N)=O)c(NC2C3CC4CC2CC(OS(=O)(=O)O)(C4)C3)c2ccnc1-2 (centres unmarked)  Tmax (median) (Japanese adults, mild hepatic impairment, plasma; oral, 150 mg single dose): 180 min
Cn1c(=O)oc2ccc(-c3ccc(CC(C#N)NC(=O)C4CNCCCO4)c(F)c3)cc21 (centres unmarked)  CPK increased incidence (human; oral, 10 mg once daily, TEAE, multiple ascending dose): 0%
COCC1CN(C2CCN(c3cc(OC)c(Nc4ncc(Br)c(Nc5ccc6c(c5P(C)(C)=O)OCCO6)n4)cc3C)CC2)C1  treatment-related WBC increased, all grades (human patients; oral, 10 to 240 mg once daily): 11.1%
[11CH3]c1ccc2nc(C3CCC3)n(-c3ccc4[nH]ncc4c3)c2n1  absorbed radiation dose (human male, breasts; extrapolated from mouse biodistribution): 2 µSv/MBq
N=C(N)NCCC[C@@H]1NC(=O)[C@H](Cc2c[nH]c3ccccc23)NC(=O)[C@@H](CC2CCCCC2)NC(=O)[C@@H]2CCCN2C(=O)[C@@H](NC(=O)CCc2ccccc2)CCCNC1=O  Tmax (C57BL/6J mice, brain; subcutaneous, 1 mg/kg): 30.2 min
CC(=O)N[C@H](CC(=O)O)C(=O)N[C@H](Cc1c[nH]c2ccccc12)C(=O)N[C@H](Cc1ccccc1)C(=O)N[C@H](CCCCN)C(=O)N[C@H](C)C(=O)N[C@H](Cc1ccccc1)C(=O)N[C@H](Cc1ccc(O)cc1)C(=O)N[C@H](CC(=O)O)C(=O)N[C@H](CCCCN)C(=O)N[C@@H](C(=O)N[C@H](C)C(=O)N[C@H](CCC(=O)O)C(=O)N[C@H](CCCCN)C(=O)N[C@H](Cc1ccccc1)C(=O)N[C@H](CCCCN)C(=O)N[C@H](CCC(=O)O)C(=O)N[C@H](C)C(=O)N[C@H](Cc1ccccc1)C(N)=O)C(C)C  AUC(0-t) (statin-treated high-risk CHD men, plasma; oral, 300 mg daily, day 1, 0 to 2 h, mean, detected subjects only): 5.86 ng·h/mL
C[Si](C)(C)C[C@@H](CN)CC(=O)O  performance time (neuromuscular coordination; Wistar rat male; oral, 300 mg/kg, 3 h): 180 s
Cc1ccc(NCC(=O)N2CCNCC2)cc1S(=O)(=O)N1CCOCC1  kinetic solubility (water): > 250 µM
N=C(N)NCCC[C@H](NC(=O)[C@@H]1CCCN1C(=O)[C@H](Cc1ccccc1)NC(=O)[C@@H]1CCCN1C(=O)[C@H](Cc1c[nH]cn1)NC(=O)[C@@H](N)Cc1ccccc1)C(=O)O  MRT(0-inf) (Sprague-Dawley rats, male, plasma; oral, 50 mg/kg): 58.1 ± 17.7 min
Cc1[nH]nc2c1N=C(c1ccccc1Cl)c1cnc(NCCOCCO)cc1N2  excretion in feces and urine (human, feces and urine; oral, 10 mg; reference: dose): 3.45%

For quick reference, copied from above:
CC[C@H](C)[C@H](NC(=O)[C@H](CCCCN)NC(=O)[C@@H](NC(=O)[C@H](CS)NC(=O)[C@H](CCCNC(=N)N)NC(=O)[C@H](CCCNC(=N)N)NC(=O)[C@H](CC(N)=O)NC(=O)[C@H](CCCNC(=N)N)NC(=O)[C@H](CCCNC(=N)N)NC(=O)[C@H](CS)NC(=O)[C@@H](NC(=O)[C@H](CO)NC(=O)[C@@H](NC(=O)[C@@H](NC(=O)[C@H](CS)NC(=O)[C@H](CCCCN)NC(=O)[C@@H](N)CCCNC(=N)N)C(C)C)[C@@H](C)CC)C(C)C)[C@@H](C)CC)C(=O)N[C@@H](CC(C)C)C(=O)N[C@@H](CS)C(=O)N[C@@H](CC(N)=O)C(=O)O  single disulfide form (LC-MS; PBS; 0.1 mg/mL): 59%
COCC1CN(C2CCN(c3cc(OC)c(Nc4ncc(Br)c(Nc5ccc6c(c5P(C)(C)=O)OCCO6)n4)cc3C)CC2)C1  treatment-related WBC increased, all grades (human patients; oral, 10 to 240 mg once daily): 11.1%
CC(C)C[C@@H](NC(=O)[C@H](NC(=O)[C@H]1CCCN1)[C@H](C)O)C(=O)N[C@H](Cc1c[nH]cn1)C(=O)N[C@@H](C(=O)N[C@H](Cc1c[nH]cn1)C(=O)N[C@H](CC(N)=O)C(=O)N[C@H](CCCNC(=N)N)C(=O)N[C@H](CCCNC(=N)N)C(=O)N[C@H](CCCNC(=N)N)C(=O)N[C@H](CCCNC(=N)N)C(=O)N[C@H](CCCNC(=N)N)C(N)=O)[C@H](C)O  AUC(0-inf) (Beagle dog, CSF; oral, 20 mg/kg): 242 ± 47 ng·h/mL
Cc1noc(C)c1Cn1cc(N2C(=O)CN(Cc3cccc(O[C@@H]4O[C@H](C(=O)O)[C@@H](O)[C@H](O)[C@H]4O)c3)C2=O)cn1  AUC(0-last) (rat Sprague-Dawley male, plasma; oral, 10 mg/kg of parent drug): 6050 ng·h/mL
